Measurements of several laboratories.
PTGS2: Prostaglandin G/H synthase 2 (PTGS2, Homo sapiens, UniProt P35354)
UniProt P35354, sequence (whole entry, looked up): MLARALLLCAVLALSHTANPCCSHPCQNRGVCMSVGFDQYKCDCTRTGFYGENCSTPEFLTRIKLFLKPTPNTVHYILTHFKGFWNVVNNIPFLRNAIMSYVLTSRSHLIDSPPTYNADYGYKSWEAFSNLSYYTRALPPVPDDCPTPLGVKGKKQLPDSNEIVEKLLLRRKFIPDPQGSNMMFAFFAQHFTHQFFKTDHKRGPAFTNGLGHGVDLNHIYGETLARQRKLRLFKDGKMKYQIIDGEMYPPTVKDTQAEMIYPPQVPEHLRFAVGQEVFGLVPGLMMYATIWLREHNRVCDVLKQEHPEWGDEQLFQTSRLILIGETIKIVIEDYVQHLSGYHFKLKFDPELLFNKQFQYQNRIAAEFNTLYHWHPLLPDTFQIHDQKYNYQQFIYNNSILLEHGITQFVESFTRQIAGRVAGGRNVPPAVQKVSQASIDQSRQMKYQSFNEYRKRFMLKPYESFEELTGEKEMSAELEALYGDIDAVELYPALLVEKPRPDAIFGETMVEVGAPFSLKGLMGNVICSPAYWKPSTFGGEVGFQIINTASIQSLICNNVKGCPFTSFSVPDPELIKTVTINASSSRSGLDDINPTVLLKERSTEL
SCN1A: Sodium channel protein type 1 subunit alpha (SCN1A, Homo sapiens, UniProt P35498)
USP51: Ubiquitin carboxyl-terminal hydrolase 51 (USP51, Homo sapiens, UniProt Q70EK9)
UniProt Q70EK9, sequence (whole entry, looked up): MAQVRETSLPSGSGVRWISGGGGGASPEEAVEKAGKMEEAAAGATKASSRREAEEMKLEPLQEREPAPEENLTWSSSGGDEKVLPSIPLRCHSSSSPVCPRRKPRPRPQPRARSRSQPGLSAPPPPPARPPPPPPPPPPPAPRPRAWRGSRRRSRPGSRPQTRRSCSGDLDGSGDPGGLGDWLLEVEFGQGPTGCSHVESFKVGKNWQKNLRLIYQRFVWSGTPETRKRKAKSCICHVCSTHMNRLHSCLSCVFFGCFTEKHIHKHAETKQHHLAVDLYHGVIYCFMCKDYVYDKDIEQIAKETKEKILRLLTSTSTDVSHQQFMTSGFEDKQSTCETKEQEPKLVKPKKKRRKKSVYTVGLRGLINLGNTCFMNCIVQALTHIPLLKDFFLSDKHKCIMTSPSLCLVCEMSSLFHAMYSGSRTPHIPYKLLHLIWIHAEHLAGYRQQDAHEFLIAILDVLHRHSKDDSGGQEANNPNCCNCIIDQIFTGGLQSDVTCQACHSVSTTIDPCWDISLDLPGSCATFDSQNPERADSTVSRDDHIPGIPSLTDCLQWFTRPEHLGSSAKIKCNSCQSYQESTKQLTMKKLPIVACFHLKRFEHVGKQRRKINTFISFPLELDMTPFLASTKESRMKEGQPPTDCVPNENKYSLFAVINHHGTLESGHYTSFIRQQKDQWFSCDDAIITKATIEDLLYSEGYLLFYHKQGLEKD
PDE10A: cAMP and cAMP-inhibited cGMP 3',5'-cyclic phosphodiesterase 10A (PDE10A, Homo sapiens, UniProt Q9Y233)
UniProt Q9Y233, sequence (whole entry, looked up): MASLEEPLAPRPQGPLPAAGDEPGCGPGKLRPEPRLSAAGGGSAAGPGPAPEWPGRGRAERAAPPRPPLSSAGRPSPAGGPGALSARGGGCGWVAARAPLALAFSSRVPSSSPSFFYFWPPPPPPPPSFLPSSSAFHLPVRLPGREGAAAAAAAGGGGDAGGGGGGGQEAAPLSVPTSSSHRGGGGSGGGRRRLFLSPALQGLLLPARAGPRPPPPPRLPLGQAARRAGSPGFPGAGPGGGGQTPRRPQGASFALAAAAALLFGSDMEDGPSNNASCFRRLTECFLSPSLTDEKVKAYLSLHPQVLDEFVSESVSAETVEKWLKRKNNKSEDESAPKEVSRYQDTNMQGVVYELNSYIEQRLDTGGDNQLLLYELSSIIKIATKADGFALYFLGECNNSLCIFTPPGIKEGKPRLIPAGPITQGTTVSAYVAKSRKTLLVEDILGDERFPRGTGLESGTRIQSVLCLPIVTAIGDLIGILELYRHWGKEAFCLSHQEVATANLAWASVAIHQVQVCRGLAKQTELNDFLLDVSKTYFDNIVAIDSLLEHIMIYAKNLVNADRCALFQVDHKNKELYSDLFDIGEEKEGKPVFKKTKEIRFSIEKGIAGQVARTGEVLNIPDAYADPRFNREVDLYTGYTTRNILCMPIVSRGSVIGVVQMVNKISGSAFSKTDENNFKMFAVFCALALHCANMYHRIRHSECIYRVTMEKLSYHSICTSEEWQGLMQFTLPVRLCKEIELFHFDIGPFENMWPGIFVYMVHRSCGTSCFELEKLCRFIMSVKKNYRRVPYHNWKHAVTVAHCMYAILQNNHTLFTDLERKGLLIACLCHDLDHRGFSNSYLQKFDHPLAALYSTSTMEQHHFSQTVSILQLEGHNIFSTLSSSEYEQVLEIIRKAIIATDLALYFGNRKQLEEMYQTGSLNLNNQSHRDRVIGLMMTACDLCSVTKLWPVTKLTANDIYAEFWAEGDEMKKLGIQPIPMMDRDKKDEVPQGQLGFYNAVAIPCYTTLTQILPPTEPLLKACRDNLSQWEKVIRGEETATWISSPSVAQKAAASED
HDAC6: Protein deacetylase HDAC6 (HDAC6, Homo sapiens, UniProt Q9UBN7)
UniProt Q9UBN7, sequence (whole entry, looked up): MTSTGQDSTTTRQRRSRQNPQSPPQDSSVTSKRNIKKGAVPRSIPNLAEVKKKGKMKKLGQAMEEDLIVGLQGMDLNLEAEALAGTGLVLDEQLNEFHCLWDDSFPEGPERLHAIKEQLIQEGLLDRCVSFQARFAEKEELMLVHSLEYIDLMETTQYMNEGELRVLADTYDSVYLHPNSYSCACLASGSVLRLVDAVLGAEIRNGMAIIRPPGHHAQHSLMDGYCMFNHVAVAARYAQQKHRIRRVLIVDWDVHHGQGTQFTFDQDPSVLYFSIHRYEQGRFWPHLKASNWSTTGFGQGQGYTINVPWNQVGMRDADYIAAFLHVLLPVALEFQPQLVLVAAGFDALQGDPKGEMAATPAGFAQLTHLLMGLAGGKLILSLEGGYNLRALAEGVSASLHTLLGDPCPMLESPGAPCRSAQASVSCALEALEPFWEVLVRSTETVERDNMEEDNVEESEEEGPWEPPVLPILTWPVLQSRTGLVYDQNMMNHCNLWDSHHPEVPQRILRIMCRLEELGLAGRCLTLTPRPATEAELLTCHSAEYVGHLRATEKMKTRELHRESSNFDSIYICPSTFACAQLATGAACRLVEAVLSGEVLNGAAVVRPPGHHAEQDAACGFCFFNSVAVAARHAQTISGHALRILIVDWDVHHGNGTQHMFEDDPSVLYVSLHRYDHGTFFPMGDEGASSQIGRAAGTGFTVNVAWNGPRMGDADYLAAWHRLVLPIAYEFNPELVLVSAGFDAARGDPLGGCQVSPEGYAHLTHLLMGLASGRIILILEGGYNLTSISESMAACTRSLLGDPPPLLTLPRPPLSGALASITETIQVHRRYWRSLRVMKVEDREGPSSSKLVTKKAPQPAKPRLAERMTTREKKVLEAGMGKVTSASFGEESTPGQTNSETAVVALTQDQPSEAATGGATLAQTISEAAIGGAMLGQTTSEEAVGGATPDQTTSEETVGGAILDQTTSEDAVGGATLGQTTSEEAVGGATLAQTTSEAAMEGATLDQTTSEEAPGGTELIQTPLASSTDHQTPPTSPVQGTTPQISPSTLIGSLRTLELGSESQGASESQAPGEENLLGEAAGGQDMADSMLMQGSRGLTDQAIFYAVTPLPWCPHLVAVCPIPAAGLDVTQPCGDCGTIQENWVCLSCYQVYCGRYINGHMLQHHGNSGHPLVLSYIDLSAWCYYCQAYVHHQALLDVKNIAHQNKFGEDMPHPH
HDAC1: Histone deacetylase 1 (HDAC1, Homo sapiens, UniProt Q13547)
UniProt Q13547, sequence (whole entry, looked up): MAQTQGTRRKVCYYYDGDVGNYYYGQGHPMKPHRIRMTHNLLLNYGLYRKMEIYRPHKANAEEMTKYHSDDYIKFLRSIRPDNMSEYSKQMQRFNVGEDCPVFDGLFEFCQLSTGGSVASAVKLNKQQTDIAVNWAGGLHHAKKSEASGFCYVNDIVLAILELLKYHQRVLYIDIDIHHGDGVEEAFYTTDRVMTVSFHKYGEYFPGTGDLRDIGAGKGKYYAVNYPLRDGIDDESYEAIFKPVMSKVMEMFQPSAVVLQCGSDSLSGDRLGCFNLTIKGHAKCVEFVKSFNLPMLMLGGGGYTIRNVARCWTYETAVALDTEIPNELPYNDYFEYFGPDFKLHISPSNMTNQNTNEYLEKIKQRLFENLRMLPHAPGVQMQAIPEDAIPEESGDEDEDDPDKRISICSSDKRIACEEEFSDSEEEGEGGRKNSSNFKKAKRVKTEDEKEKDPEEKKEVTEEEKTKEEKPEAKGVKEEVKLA
SIRT6: NAD-dependent protein deacylase sirtuin-6 (SIRT6, Homo sapiens, UniProt Q8N6T7)
UniProt Q8N6T7, sequence (whole entry, looked up): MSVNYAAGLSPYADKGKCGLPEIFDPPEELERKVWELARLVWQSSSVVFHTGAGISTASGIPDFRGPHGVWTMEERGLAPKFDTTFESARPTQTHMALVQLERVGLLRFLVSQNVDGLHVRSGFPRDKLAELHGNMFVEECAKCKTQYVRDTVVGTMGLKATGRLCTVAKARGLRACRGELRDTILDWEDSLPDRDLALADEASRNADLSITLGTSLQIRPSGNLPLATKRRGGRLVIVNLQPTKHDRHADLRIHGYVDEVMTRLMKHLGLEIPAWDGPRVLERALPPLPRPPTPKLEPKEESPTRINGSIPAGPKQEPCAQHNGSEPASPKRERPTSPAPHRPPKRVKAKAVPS
UniProt P53667, sequence (whole entry, looked up): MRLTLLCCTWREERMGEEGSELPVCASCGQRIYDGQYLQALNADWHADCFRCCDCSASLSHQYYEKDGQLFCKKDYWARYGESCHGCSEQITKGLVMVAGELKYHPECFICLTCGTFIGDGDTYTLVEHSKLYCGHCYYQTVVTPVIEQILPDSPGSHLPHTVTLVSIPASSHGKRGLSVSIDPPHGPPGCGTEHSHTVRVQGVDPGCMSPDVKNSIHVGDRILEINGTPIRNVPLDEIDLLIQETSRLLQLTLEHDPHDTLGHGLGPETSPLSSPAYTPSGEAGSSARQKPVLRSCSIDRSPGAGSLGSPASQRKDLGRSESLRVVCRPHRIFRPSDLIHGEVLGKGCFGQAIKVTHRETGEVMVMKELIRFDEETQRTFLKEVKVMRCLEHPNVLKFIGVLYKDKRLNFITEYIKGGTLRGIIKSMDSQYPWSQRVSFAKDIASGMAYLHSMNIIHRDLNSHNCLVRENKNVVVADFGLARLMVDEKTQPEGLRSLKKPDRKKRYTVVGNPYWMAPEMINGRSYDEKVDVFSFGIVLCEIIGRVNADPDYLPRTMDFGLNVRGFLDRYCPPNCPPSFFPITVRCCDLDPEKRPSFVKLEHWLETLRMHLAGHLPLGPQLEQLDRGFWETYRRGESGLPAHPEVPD

O=c1cc(-c2ccc(O)c(O)c2)oc2cc(O)cc(O)c12 — inhibition (PTGS2; enzyme activity, inhibitor; 0.98 µg/mL): 60.2%
CNCCCC12CCC(c3ccccc31)c1ccccc12 — inhibition (SCN1A; ion current, inhibitor, patch clamp; 3 µM): 6.2%
CN1CC(Oc2cnc(C#N)cc2-c2ccn3nc(NC(=O)C4CC4)cc3c2)C1 — inhibition (TNK2 (Homo sapiens, UniProt Q07912); enzyme activity, inhibitor; 1 µM): 40%
COc1c(O)cc2c(c1O)[C@@H]1O[C@H](CO)[C@@H](O)[C@H](O)[C@H]1OC2=O — inhibition (USP51; enzyme activity, inhibitor; 5 µM): 0%
NC/C(=C\F)COc1cccc(Cn2c(=S)[nH]c(=O)c3[nH]cnc32)c1 — inhibition (Myeloperoxidase (MPO, Homo sapiens, UniProt P05164); enzyme activity, inhibitor, fluorescence; 0.1111 µM): 90.8%
C[C@H]1O[C@H](O[C@H]2[C@H](O)[C@@H](O)[C@@H](O[C@H]3[C@H](O)[C@@H](O)C(O)O[C@@H]3CO)O[C@@H]2CO)[C@H](O)[C@@H](O)[C@@H]1N[C@H]1C=C(CO)[C@@H](O)[C@H](O)[C@H]1O (stereo partly shown) — inhibition (MAL12 (Saccharomyces cerevisiae S288c, UniProt P53341); enzyme activity, inhibitor, absorbance; 800 µg/mL): 70.3%
COc1cc(-c2cncc3c2CN(C)Cc2cc(N4CCNCC4)ccc2-3)cc(OC)c1OC — remaining activity (LIM domain kinase 1 (LIMK1, Homo sapiens, UniProt P53667); enzyme activity, inhibitor; 1 µM): 91%
C=CC(=O)N1CCC(COCC(=O)N2CCN(c3nc(-c4cnc(N)nc4C(F)F)nc(N4CCOC[C@@H]4C)n3)CC2)CC1 — remaining binding (AXL (Homo sapiens, UniProt P30530); binding, competition with immobilised ligand; 1 µM): 98%
COc1ccc(Cc2ccnc3cc(OC)c(OC)cc23)cc1OC — inhibition (PDE10A; enzyme activity, inhibitor, FP; 0.1 µM): 26%
COc1cc([C@H]2OC[C@H]3[C@@H]2CO[C@@H]3c2cc(OC)c(O)c(OC)c2)cc(OC)c1O — inhibition (PTGS2; enzyme activity, inhibitor; 31.25 µg/mL): 100%
Cc1cc([C@@H](C)Nc2ccccc2C(=O)O)c2nc(N3CCC(F)(F)CC3)c(C#N)c(=O)n2c1 — remaining binding (Tyrosine-protein kinase ABL1, phosphorylated (ABL1, Homo sapiens, UniProt P00519, T315I); binding, competition with immobilised ligand; 1 µM): 100%
COc1cc(-c2cccc(Cc3ncnc4cc(OC)c(OC)cc34)c2)ccn1 — inhibition (PDE10A; enzyme activity, inhibitor, FP; 0.1 µM): 74%
C[N+](C)(C)C[C@H](O)CC(=O)[O-] — inhibition (USP51; enzyme activity, inhibitor; 5 µM): 0%
CC12CC3CC(C)(C1)CC(N)(C3)C2 — inhibition (KCNA1 (Homo sapiens, UniProt Q09470); ion current, inhibitor, patch clamp; 10 µM): 19.5%
C[C@H]1[C@@H](O)O[C@@H]2O[C@@]3(C)CC[C@H]4[C@H](C)CC[C@@H]1[C@@]24OO3 — inhibition (USP51; enzyme activity, inhibitor; 5 µM): 0%
Cc1cc(OS(=O)(=O)Oc2ccc(C(C)C)cc2)cc(C(=O)NO)c1 — inhibition (HDAC6; enzyme activity, inhibitor, fluorescence; 10 µM): 28%
CC(C(=O)O)c1cccc(Oc2ccccc2)c1 (stereo not shown) — inhibition (PTGS1 (Ovis aries, UniProt P05979); enzyme activity, inhibitor, fluorescence; 100 µM): 5%
Cc1cc(OS(=O)(=O)Oc2ccc(Oc3ccccc3)cc2)cc(C(=O)NO)c1 — inhibition (HDAC6; enzyme activity, inhibitor, fluorescence; 10 µM): 54%
CC1(C)CC[C@]2(C(=O)O)CC[C@]3(C)C(=CC[C@@H]4[C@@]5(C)CC[C@H](O)C(C)(C)[C@@H]5CC[C@]43C)[C@@H]2C1 — inhibition (USP51; enzyme activity, inhibitor; 5 µM): 26%
O=c1cc(-c2ccc(O)cc2)oc2cc(O)cc(O)c12 — inhibition (PTGS2; enzyme activity, inhibitor; 7.81 µg/mL): 72.2%
Cc1c(OS(=O)(=O)Oc2cccc(C(C)(C)C)c2)cccc1C(=O)NO — inhibition (HDAC6; enzyme activity, inhibitor, fluorescence; 10 µM): 18%
COc1cc2ncnc(Cc3cccc(-c4ccccn4)c3)c2cc1OC — inhibition (PDE10A; enzyme activity, inhibitor, FP; 0.1 µM): 50%
C[C@@]12C[C@@]3(O)O[C@@H](O1)[C@]1(COC(=O)c4ccccc4)[C@H]3C[C@@]12O[C@@H]1O[C@H](CO)[C@@H](O)[C@H](O)[C@H]1O — inhibition (USP51; enzyme activity, inhibitor; 5 µM): 61%
O=C(NO)c1cccc(OS(=O)(=O)Oc2cccc(-c3ccccc3)c2)c1 — inhibition (HDAC1; enzyme activity, inhibitor, fluorescence; 10 µM): 59%
CC(C)c1[nH]c2nc(N)nn2c(=O)c1Cc1cc(Cl)cc(Cl)c1 — inhibition (CCR5 (Homo sapiens, UniProt P51681); β-arrestin recruitment, antagonist; 1 µM): 89%
NC(=O)c1ccc(C(=O)NOCc2ccc(Sc3cc(F)cc(F)c3)c(C(F)(F)F)c2)cc1 — inhibition (SIRT6; enzyme activity, inhibitor, fluorescence; 100 µM): 100%
CC[C@H](C)[C@H](NC(=O)[C@H](CCC(N)=O)NC(=O)[C@H](CC(C)C)NC(=O)[C@H](CCSC)NC(=O)[C@H](CCCCN)NC(=O)[C@H](CO)NC(=O)[C@H](CO)NC(=O)[C@H](CCSC)NC(=O)[C@H](CC(C)C)NC(=O)[C@H](CC(N)=O)NC(=O)[C@@H](NC(=O)[C@@H](NC(=O)[C@H](CO)NC(=O)[C@H](CC(C)C)NC(=O)[C@H](CS)NC(=O)[C@H](CCCNC(=N)N)NC(=O)[C@H](CC(=O)O)NC(=O)[C@H](Cc1c[nH]c2ccccc12)NC(=O)[C@H](Cc1ccccc1)NC(=O)[C@H](C)NC(=O)[C@H](CCC(=O)O)NC(=O)[C@@H](N)CCCCN)C(C)C)[C@@H](C)CC)C(=O)N[C@@H](CC(N)=O)C(=O)N[C@@H](C)C(=O)O — inhibition (Cyclin-dependent kinase 5, with p35 (CDK5, Homo sapiens, UniProt Q00535); enzyme activity, inhibitor, radiometric; 50 µM): 10%
CC(C)(C)c1ccc(OS(=O)(=O)Oc2cccc(C(=O)NO)c2)cc1 — inhibition (HDAC1; enzyme activity, inhibitor, fluorescence; 10 µM): 50%
COc1cc(-c2cc(=O)c3c(O)cc(O)cc3o2)ccc1O — inhibition (PTGS2; enzyme activity, inhibitor; 3.9 µg/mL): 31.1%
NC(=O)c1ccc(C(=O)NOCc2cccc(-c3ccccc3)c2)cc1 — inhibition (SIRT6; enzyme activity, inhibitor, fluorescence; 100 µM): 84%
COC(=O)c1ccc(O)cc1 — inhibition (PTGS2; enzyme activity, inhibitor; 31.25 µg/mL): 82.1%
CC(C)(C)c1cccc(OS(=O)(=O)Oc2cccc(C(=O)NO)c2)c1 — inhibition (HDAC1; enzyme activity, inhibitor, fluorescence; 10 µM): 30%
Nc1c(Br)cc(Br)cc1CN[C@H]1CC[C@H](O)CC1 — inhibition (SCN1A; ion current, inhibitor, patch clamp; 30 µM): 54.3%
Fc1ccc(NC(=S)NN=Cc2ccc(N3CCCCC3)cc2)cc1 — inhibition (DHFR (Homo sapiens, UniProt P00374); enzyme activity, inhibitor; 500 µM): 89.2%
CC[C@H](C)[C@H](NC(=O)[C@H](CCC(N)=O)NC(=O)[C@@H](NC(=O)[C@H](CCSC)NC(=O)[C@H](CCCCN)NC(=O)[C@H](CO)NC(=O)[C@@H](NC(=O)[C@H](CCSC)NC(=O)[C@H](CC(C)C)NC(=O)[C@H](CC(N)=O)NC(=O)[C@@H](NC(=O)[C@@H](NC(=O)[C@H](CO)NC(=O)[C@H](CC(C)C)NC(=O)[C@H](C)NC(=O)[C@H](CCCNC(=N)N)NC(=O)[C@H](CCC(=O)O)NC(=O)[C@H](Cc1ccc(O)cc1)NC(=O)[C@H](Cc1ccccc1)NC(=O)[C@H](C)NC(=O)[C@H](CC(N)=O)NC(=O)[C@@H](N)CCCCN)[C@@H](C)CC)[C@@H](C)CC)[C@@H](C)O)C(C)C)C(=O)N[C@@H](CC(N)=O)C(=O)N[C@H](C(=O)O)C(C)C — inhibition (GSK3B (Homo sapiens, UniProt P49841); enzyme activity, inhibitor, radiometric; 500 µM): -40%
C=C(C)[C@@H]1CC=C(CO)CC1 — inhibition (USP51; enzyme activity, inhibitor; 5 µM): 15%
COc1cc(-c2cc(C(C)=O)n3ccccc23)c(OC)cc1Cn1ccnc1 — inhibition (BRD9 (Homo sapiens, UniProt Q9H8M2); protein-protein interaction, inhibitor, AlphaScreen; 1 µM): 98.9%
C=C[C@@]1(C)C=C2CC[C@@H]3[C@](C)(CCC[C@@]3(C)C(=O)O)[C@H]2CC1 — inhibition (PTGS2; enzyme activity, inhibitor; 3.9 µg/mL): 39.2%
C=C1C[C@@]23CC[C@H]4[C@@](C)(CCC[C@@]4(C)C(=O)O[C@@H]4O[C@H](CO)[C@@H](O)[C@H](O)[C@H]4O)[C@@H]2CC[C@]1(O[C@@H]1O[C@H](CO)[C@@H](O)[C@H](O)[C@H]1O[C@@H]1O[C@H](CO)[C@@H](O)[C@H](O[C@@H]2O[C@H](CO)[C@@H](O)[C@H](O)[C@H]2O)[C@H]1O)C3 — inhibition (USP51; enzyme activity, inhibitor; 5 µM): 71%
COc1ccc(Cc2ncnc3cc(OC)c(OC)cc23)cc1OC — inhibition (PDE10A; enzyme activity, inhibitor, FP; 0.1 µM): 48%
N#C[C@@]12C[C@@H]1[C@@H](n1cnc3c(Nc4ccc(Cl)c(Cl)c4)nc(I)nc31)[C@H](O)[C@@H]2O — inhibition (SLC6A4 (Homo sapiens, UniProt P31645); ligand displacement, radioligand; 10 µM): 10%
Cc1c(OS(=O)(=O)Oc2ccc(C(F)(F)F)cc2)cccc1C(=O)NO — inhibition (HDAC6; enzyme activity, inhibitor, fluorescence; 10 µM): 31%
CCc1nn(C)c2nc(-c3ccc(C(=O)O)cc3)nc(NCc3ccc(F)cc3)c12 — inhibition (PDE11A (Homo sapiens, UniProt Q9HCR9); enzyme activity, inhibitor, radiometric; 10 µM): 55.3%
CO[C@H]1O[C@@H]2O[C@@]3(C)CC[C@H]4[C@H](C)CC[C@@H]([C@H]1C)[C@@]24OO3 — inhibition (USP51; enzyme activity, inhibitor; 5 µM): 10%
COc1cccc(OS(=O)(=O)Oc2cccc(C(=O)NO)c2)c1 — inhibition (HDAC1; enzyme activity, inhibitor, fluorescence; 5 µM): 49%
CNc1ncc2c(/C=C/C(=O)N3CCC(OC)CC3)nn(Cc3cccc(C(F)(F)F)c3)c2n1 — remaining activity (TYRO3 (Homo sapiens, UniProt Q06418); enzyme activity, inhibitor, radiometric; 1 µM): 88%

Excerpt of the above:
CC12CC3CC(C)(C1)CC(N)(C3)C2 — inhibition (KCNA1 (Homo sapiens, UniProt Q09470); ion current, inhibitor, patch clamp; 10 µM): 19.5%
Cc1cc([C@@H](C)Nc2ccccc2C(=O)O)c2nc(N3CCC(F)(F)CC3)c(C#N)c(=O)n2c1 — remaining binding (Tyrosine-protein kinase ABL1, phosphorylated (ABL1, Homo sapiens, UniProt P00519, T315I); binding, competition with immobilised ligand; 1 µM): 100%
N#C[C@@]12C[C@@H]1[C@@H](n1cnc3c(Nc4ccc(Cl)c(Cl)c4)nc(I)nc31)[C@H](O)[C@@H]2O — inhibition (SLC6A4 (Homo sapiens, UniProt P31645); ligand displacement, radioligand; 10 µM): 10%
CC(C)(C)c1ccc(OS(=O)(=O)Oc2cccc(C(=O)NO)c2)cc1 — inhibition (HDAC1; enzyme activity, inhibitor, fluorescence; 10 µM): 50%
Fc1ccc(NC(=S)NN=Cc2ccc(N3CCCCC3)cc2)cc1 — inhibition (DHFR (Homo sapiens, UniProt P00374); enzyme activity, inhibitor; 500 µM): 89.2%
